{"data": "Experimental data from different studies", "note": "Each numbered part is a random draw from the data of one study; scales do not carry over between parts."}
{"data": "Sample 1", "target": "RNA binding protein fox-1 homolog 2, RRM domain, GST-SBP tag (RBFOX2, Homo sapiens, UniProt O43251-10, residues 100-194)", "method": "RNA Bind-n-Seq", "form": "RNA", "sample": "in vitro", "concentration": "365 nM", "setting": "natural RNA segment, single round, ends assumed", "relative to": "no-protein control", "reading": "higher = stronger binding", "shared flanks, not repeated": "GGGAGUUCUACAGUCCGACGAUC … UGGAAUUCUCGGGUGCCAA"}
{"Strand": "CAGCUAAUUUUUGUAUUUUUAUAGAGAUGGAGUUUUGCCAUGUUGGCCAGCCUGGUCUUGAACUCUUGAACUCCUGACCUCAGGUAAUCCACCCACCUCAGACUCCCAAA", "RBNS enrichment (R)": 0.429}
{"Strand": "UAAUCUCAACUAAAGAUAUAGUUCUGUGGUAGCCAUUGUUUUACAAUGAAAUAACUGCAACUAGAGAAAAAAAACUGUAUAAAAACAUUAAAUUGUCAGUAUUUUUGUAA", "RBNS enrichment (R)": 0.5}
{"Strand": "ACACUCUUCUCAGCUUAUAAAAUUUGCCGUUUUGUAUAUUUUUAAAUAUGGAUCAAAAAGAGUCUUGGAUACUCAGCCCCAUAUUUUGUGCUGAACUGACAUGAACAACC", "RBNS enrichment (R)": 0.482}
{"Strand": "GCCUCUUCUGGCUGUCAGGAGCAAAGCCUGAAGACUUGGAGCUGCAGGACUGGAAGAACAGUGGAGCCCCGUGGGUCUCACCCUUUAAGGAUGCUGAGGCCUAGAGAUGG", "RBNS enrichment (R)": 0.709}
{"Strand": "GUCCUAUAUUUUUAAAGCACACGGAAGGAGCACCAGCAGCUCUGAUAGUAUUGUGAAAGUUCUGAGACCUUCCCUGGCUCAGGACCUCUGAGUUUCCUUCCCCCUCCCCC", "RBNS enrichment (R)": 0.725}
{"Strand": "UUCUUAUGAAAGUCUAGACUGUCUUACUGUGAAGAUGGCCAGGGAGGAUAGCAAGCAAUGGCAUUCUUGAACAGUCUAAGGCAGGUUUCUCAGUGUGGUCCUGAGAACAG", "RBNS enrichment (R)": 1.07}
{"Strand": "AAAGACCUAGAAUCCAGUCAUAGUUUCUCACUGAAUAGUUGGUAGGUUUCAGAAUAAACUCAGAGAAAACUUCAGGCUAAGAGACAGUGCUGCGUAGCUGUGUUGUUUCC", "RBNS enrichment (R)": 0.681}
{"Strand": "GACCCCAUGCUGAGUGGCCAGUGGGGAGCGGCGCCCGGCAGGCUCUUCUGGGGUCGUCUGUCCUAUCCGUGGAUUGUAUAUACUCUUCUCUGUUAAGGAGUUUUUCCCAA", "RBNS enrichment (R)": 0.469}
{"data": "Sample 2", "target": "Histone acetyltransferase KAT6A, both winged helices, GST fusion (KAT6A, Homo sapiens, UniProt Q92794, residues 1-181)", "method": "protein binding microarray", "form": "double-stranded DNA, one strand shown", "sample": "in vitro", "concentration": "not given", "setting": "8-mer, flanks averaged, mean of 2 arrays, mostly near background", "relative to": "not given", "reading": "higher = stronger binding", "Target sequence (chain)": "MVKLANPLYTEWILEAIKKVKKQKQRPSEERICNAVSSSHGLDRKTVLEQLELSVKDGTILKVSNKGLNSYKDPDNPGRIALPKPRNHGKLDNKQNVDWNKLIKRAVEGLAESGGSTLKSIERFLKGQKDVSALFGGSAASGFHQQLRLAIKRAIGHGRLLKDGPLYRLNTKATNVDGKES"}
{"Strand": "AACACAAC", "E-score": -0.0101}
{"Strand": "ATGTCAGA", "E-score": -0.0693}
{"Strand": "AGAACTCA", "E-score": -0.137}
{"Strand": "GTGGGGTA", "E-score": -0.0445}
{"Strand": "AGGTATGC", "E-score": -0.0625}
{"Strand": "AAACTTAC", "E-score": -0.101}
{"Strand": "CGAGGGGA", "E-score": -0.0845}
{"Strand": "ATAATGAA", "E-score": -0.0857}
{"Strand": "CTGGGACA", "E-score": -0.124}
{"Strand": "ATTGTCCA", "E-score": -0.141}
{"Strand": "ATGAACGA", "E-score": -0.0588}
{"Strand": "ATAAACGA", "E-score": 0.0747}
{"Strand": "AAACATGG", "E-score": -0.0273}
{"Strand": "GCCCGGAA", "E-score": 0.0566}
{"Strand": "CATTAGAG", "E-score": -0.219}
{"Strand": "AGTTGCCG", "E-score": 0.161}
{"Strand": "ACATGTTC", "E-score": -0.00059}
{"Strand": "CGTTTCCA", "E-score": -0.0816}
{"Strand": "ACCTCTCT", "E-score": -0.322}
{"Strand": "AACCATGG", "E-score": -0.0384}
{"Strand": "AACTCGTC", "E-score": -0.169}
{"Strand": "AGCGCGCT", "E-score": 0.358}
{"Strand": "ACCTGCAC", "E-score": -0.129}
{"Strand": "CTGATCAA", "E-score": -0.0365}
{"Strand": "CGTCCGGC", "E-score": 0.269}
{"data": "Sample 3", "target": "Max dimerization protein 1, bHLH-zipper, MAX partner unstated (MXD1, Homo sapiens, UniProt Q05195, residues 56-136)", "method": "protein-binding microarray", "form": "double-stranded DNA, one strand shown", "sample": "in vitro", "concentration": "not given", "setting": "k-mer, scored over probes, only values ≥0.25", "reading": "higher = stronger binding", "Residues (chain)": "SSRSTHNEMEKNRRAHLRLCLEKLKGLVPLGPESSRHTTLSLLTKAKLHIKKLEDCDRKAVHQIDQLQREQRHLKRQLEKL"}
{"Strand": "AGCGTGTA", "E-score": 0.318}
{"Strand": "CAGCACGC", "E-score": 0.342}
{"Strand": "ACGTGGCA", "E-score": 0.362}
{"Strand": "AAGCGTGG", "E-score": 0.398}
{"Strand": "ATAACATG", "E-score": 0.278}
{"Strand": "CACATGTA", "E-score": 0.461}
{"Strand": "ACCACGCA", "E-score": 0.276}
{"Strand": "CACGTGCA", "E-score": 0.491}
{"Strand": "ACCTCGTG", "E-score": 0.418}
{"Strand": "CGTGCTCA", "E-score": 0.385}
{"Strand": "ATGCACAT", "E-score": 0.299}
{"Strand": "ATGTGGAC", "E-score": 0.283}
{"Strand": "AACGGGGG", "E-score": 0.298}
{"Strand": "CACGTGTA", "E-score": 0.487}
{"Strand": "AGGGGAGG", "E-score": 0.269}
{"Strand": "CAATGTGC", "E-score": 0.329}
{"Strand": "CCCCCTTA", "E-score": 0.275}
{"Strand": "GCCATGCC", "E-score": 0.372}
{"Strand": "ACATGGGA", "E-score": 0.302}
{"Strand": "AACGTGCT", "E-score": 0.35}
{"Strand": "CTCAGCAC", "E-score": 0.262}
{"data": "Sample 4", "target": "RING finger protein unkempt homolog, zinc fingers 1-6, SBP tag (UNK, Homo sapiens, UniProt Q9C0B0, residues 30-357)", "method": "RNA Bind-n-Seq", "form": "RNA", "sample": "in vitro", "concentration": "100 nM", "setting": "RNA with constant flanks, vertebrate orthologous sites, ends assumed", "relative to": "input RNA pool", "reading": "higher = stronger binding", "shared flanks, not repeated": "GGGAGUUCUACAGUCCGACGAUC … CAACAGAGGAUUGAGCAUCA", "chain of UniProt Q9C0B0 (30-357, looked up)": "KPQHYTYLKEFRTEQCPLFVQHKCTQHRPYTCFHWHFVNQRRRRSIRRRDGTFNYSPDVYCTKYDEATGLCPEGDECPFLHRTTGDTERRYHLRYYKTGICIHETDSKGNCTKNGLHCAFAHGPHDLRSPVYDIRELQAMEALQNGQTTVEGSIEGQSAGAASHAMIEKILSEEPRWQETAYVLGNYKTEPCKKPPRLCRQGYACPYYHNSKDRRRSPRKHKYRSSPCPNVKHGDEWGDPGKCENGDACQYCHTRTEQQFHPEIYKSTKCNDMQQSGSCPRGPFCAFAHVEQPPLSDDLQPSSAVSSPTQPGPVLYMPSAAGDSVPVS"}
{"Strand": "GCAAAUCCAGUCACUGUGAUAUUUAAAAUAUGCACAGUCCUCAUUCUUUCUCCAUGAUCCUAGUAUUUUUCUAGCUGUAUCUUUGUAUCUCAUACUGUUAUUUAUCAGUUUUGUUCCCCU", "bound/input enrichment": "0.897 ratio"}
{"Strand": "ACACAUAUACGUACAUACAUACACAGGCACACAAAAUCUCUCCGGGGAGGUAUGUUUCUUGCAUAUUAAAAAAGCCAGCCAUUUUUAAGUAGAAGAGGGUUUUAGAUAGAUUAUAUGUGU", "bound/input enrichment": "1.29 ratio"}
{"Strand": "CAGGGUGGGACCCGGGACCCGCGGCUCAGUGGUCCGCUAGCCACGUCAGCCAAGCCACUUUAGGUCCAUUUUUUUAUUUUAACAGUGCUCUUCCAUCUUGUGCAUAAGCCUGAGAUUCGG", "bound/input enrichment": "1.19 ratio"}
{"Strand": "AUGUAGUUUGUUUUUAAUUUUGAGCAAAAUCUUAUUGUACUUGAAUGUGCCCUGUUUUGUUAGCACACCUAGACUUGCUGUAACUGUACUCAUGUCCCAGUAUGUACGUUCUUUCUAUGA", "bound/input enrichment": "1.06 ratio"}
{"Strand": "AAAAUGGUUUCUAUAUCGUGUCCCACCCUUGUGAGAGGGAGGGGAAAGCAGGUGACCAUAUGUUCCAAUUAGUUUUCUUUUUUCUAAGAAUAACUGUAUUUAUUAUGACGAUGGUGACUC", "bound/input enrichment": "0.241 ratio"}
{"Strand": "AAAGUCCUGGCCACUUGUAUCACCUCAGUGAGGCAAAGGCUCCUAGCAUUCAGCCAGGACCAGCCCCGCCAUCCUCAGACUCAGCACCUGUAAUUUUAUUUCUUUUAUACAUGCCCAUCU", "bound/input enrichment": "0.642 ratio"}
{"Strand": "UAUCCCUAGGAUGAAGCUCUUACAUCAGGUGUCACGAGUCUGGAGAACAGAUGGGUUGAGCAGUUGUGUUUAUAAAUUACUCUCUGUGGAUUAUAAUCCUCUAUAUAUCAACAUCACAGU", "bound/input enrichment": "0.382 ratio"}
{"Strand": "AACUGGUUUUGGGUUUGUUGUUUUUUUUUAAAUUUCUCUCCAGUUCUUUUUUUUUUUACAUCGUUGUCUGUCUGUGUCUGUCACAUUUCCUUCUCAGGCGAAGGGCUAGAGUUAAAAAAA", "bound/input enrichment": "0.826 ratio"}
